Results of several laboratories.
Every numbered part comes from another study and shows a few of its results, in no order. Substitutions count along the parent as printed.

Series 1 — technique: aptamer microarray, sandwich; form: DNA with 2'F-ANA; medium: in vitro; tested at: 200 nM; with: Cy3 exosite-II aptamer, 400 nM; reading: higher = stronger binding; measurement: mean fluorescence intensity; sequence: GGTTGGTGTGGTTGG
Target: Prothrombin, mature alpha-thrombin (F2, Homo sapiens, UniProt P00734)
Notes: whole 15-mer aptamer, many near background
2'F-ANA at 2 3 4 7 9 12: 863 a.u.
2'F-ANA at 3 8 10 11 13 15: 457 a.u.
2'F-ANA at 2 3 4 6 7 11 12 14 15: 233 a.u.
2'F-ANA at 2 3 4 6 8 12: 846 a.u.
2'F-ANA at 1 3 6 7 11 12 13 14 15: 100 a.u.
2'F-ANA at 1 2 4 8 12 13 15: 249 a.u.
2'F-ANA at 2 3 4 6 7 8 10 14: 175 a.u.
2'F-ANA at 2 3 4 6 8 9 10 12 14: 176 a.u.
2'F-ANA at 1 2 3 6 11 13 14 15: 59.4 a.u.
2'F-ANA at 1 2 3 4 7 12 14: 81.2 a.u.
2'F-ANA at 2 3 4 6 8 9 10 14 15: 136 a.u.
2'F-ANA at 1 5 7 8 10 13 15: 46.4 a.u.
2'F-ANA at 6 8 9 10 11 13: 130 a.u.
2'F-ANA at 1 2 3 5 6 10 12: 47.9 a.u.
2'F-ANA at 1 2 5 7 10 11 14: 51.6 a.u.
2'F-ANA at 2 3 4 5 6 7 8 9 10 11 12 13 14 15: 65.3 a.u.

Series 2 — technique: RNAcompete; form: RNA; medium: in vitro; tested at: 20 nM; notes: 7-mer, probes averaged, single round; reference: mean of 7-mers; reading: higher = stronger binding; measurement: 7-mer Z-score
Target: PABPC1L2, full length, GST fusion (mouse, UniProt A0ABA7IW68)
Residues (chain): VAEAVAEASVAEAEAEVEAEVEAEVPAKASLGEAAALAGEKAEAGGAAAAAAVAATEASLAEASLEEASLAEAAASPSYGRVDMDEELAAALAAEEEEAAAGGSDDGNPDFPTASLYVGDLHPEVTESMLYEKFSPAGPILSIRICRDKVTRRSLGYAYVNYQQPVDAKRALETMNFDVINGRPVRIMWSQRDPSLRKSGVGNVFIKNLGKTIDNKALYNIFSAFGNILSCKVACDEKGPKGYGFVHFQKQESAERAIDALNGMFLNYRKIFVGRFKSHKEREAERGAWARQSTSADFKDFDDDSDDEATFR
CCCCUCC: -0.505
ACUGUCA: -0.284
AUAGGGG: 0.394
AACCGUG: -0.0174
GUCAACA: -0.0881
GGGUUUU: -0.151
CAAAAUA: 2.92
CAGCGUC: -0.175
CUAAAGC: 0.173
ACAGGCA: 0.394
CCCCGGC: -0.412
GAGCCUA: -0.204
GUUUGGA: -0.269
UGGCAUC: 0.095
CAAGGUA: 0.066
AGUAGGG: 0.126
UCUUUCC: -0.483
GGAAUAG: 0.0315
ACAUUUU: -0.0935
UAAGGUG: 0.0297
GUUACCG: -0.298
CACCAGA: -0.0192
UGUGUCC: -0.347

Series 3 — target: CCNB2, cyclin fold, Cln2 fusion (human); technique: yeast growth competition, sequencing; medium: yeast; notes: weak parent motif; reference: not given; reading: higher = stronger binding; measurement: normalised enrichment score
Parent: KIF20B docking peptide (human); KRAKRKLYTSEIS; partner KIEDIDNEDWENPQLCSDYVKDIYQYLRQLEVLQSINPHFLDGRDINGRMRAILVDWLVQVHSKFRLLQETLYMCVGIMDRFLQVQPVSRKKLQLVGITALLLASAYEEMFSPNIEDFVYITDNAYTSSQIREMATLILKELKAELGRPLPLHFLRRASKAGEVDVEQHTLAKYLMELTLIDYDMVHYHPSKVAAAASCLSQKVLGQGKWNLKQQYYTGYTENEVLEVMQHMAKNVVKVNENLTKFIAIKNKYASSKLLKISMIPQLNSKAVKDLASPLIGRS
KRAARKLYTSEIS [K4A]: 0.541
KRAKRKLYTSEAS [I12A]: 0.603
ARAKRKLYTSEIS [K1A]: 0.546
KRAKRKAYTSEIS [L7A]: 0.708
KRAKRKLYTAEIS [S10A]: 0.389
KAAKRKLYTSEIS [R2A]: 0.369

Series 4 — technique: protein binding microarray; form: double-stranded DNA, one strand shown; medium: in vitro; tested at: not given; reference: not given; reading: higher = stronger binding; measurement: E-score
Target: Histone acetyltransferase KAT6A, winged helix 2, GST fusion (KAT6A, Homo sapiens, UniProt Q92794, residues 85-181)
Notes: 8-mer, flanks averaged, mean of 2 arrays, mostly near background
Target sequence (chain): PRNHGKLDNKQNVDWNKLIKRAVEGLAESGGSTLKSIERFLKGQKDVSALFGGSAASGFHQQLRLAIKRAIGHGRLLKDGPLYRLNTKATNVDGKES
AAACCATT: -0.0979
AGTTCGAG: -0.0174
CGTACGAC: -0.131
GCTTAGTA: -0.00469
ACTTGGCT: -0.166
CAACGCTA: -0.103
TATGAGCA: 0.117
CATCTCAG: -0.101
AAGCCCGT: -0.198
ACTGTAAT: -0.199
CCATAGGG: -0.112
CTGACCGC: 0.175
ACTCACGA: 0.0913
CACAATTC: 0.0437
CCCCTAGG: -0.131
CAAGCGTA: 0.0255
AGTCGAGA: -0.0651

Series 5 — technique: universal PBM; form: double-stranded DNA, one strand shown; medium: in vitro; tested at: 600 nM; reading: higher = stronger binding; measurement: E-score
Target: Sal-like protein 4, full length isoform A (SALL4, Homo sapiens, UniProt Q9UJQ4, residues 1-1053)
UniProt Q9UJQ4, sequence (whole entry, looked up): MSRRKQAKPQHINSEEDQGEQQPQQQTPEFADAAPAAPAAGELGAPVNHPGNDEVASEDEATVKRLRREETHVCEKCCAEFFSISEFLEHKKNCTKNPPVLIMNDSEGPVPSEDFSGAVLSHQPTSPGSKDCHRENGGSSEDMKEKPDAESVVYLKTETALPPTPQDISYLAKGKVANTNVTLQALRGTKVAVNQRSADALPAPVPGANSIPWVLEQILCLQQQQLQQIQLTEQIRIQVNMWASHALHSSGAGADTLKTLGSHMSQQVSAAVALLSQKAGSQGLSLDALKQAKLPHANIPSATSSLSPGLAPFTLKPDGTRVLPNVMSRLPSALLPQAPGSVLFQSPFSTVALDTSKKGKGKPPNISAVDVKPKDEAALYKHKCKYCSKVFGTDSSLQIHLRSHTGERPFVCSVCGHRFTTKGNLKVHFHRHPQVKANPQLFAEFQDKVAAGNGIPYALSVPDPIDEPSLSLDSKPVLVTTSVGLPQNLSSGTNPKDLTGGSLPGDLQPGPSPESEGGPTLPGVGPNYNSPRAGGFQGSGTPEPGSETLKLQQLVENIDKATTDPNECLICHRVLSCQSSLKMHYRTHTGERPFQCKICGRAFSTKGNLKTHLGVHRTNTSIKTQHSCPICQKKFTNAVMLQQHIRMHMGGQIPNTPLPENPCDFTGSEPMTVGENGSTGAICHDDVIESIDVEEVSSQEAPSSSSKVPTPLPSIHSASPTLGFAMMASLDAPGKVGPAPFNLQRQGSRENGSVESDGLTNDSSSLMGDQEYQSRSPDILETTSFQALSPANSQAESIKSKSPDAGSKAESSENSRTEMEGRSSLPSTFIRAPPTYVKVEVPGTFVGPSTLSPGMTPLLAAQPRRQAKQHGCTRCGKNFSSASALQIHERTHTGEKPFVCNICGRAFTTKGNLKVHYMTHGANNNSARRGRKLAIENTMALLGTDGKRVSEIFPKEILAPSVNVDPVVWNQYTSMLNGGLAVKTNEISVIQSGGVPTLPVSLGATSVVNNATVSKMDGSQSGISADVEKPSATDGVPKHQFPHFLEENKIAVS
Notes: 8-mer, flanks averaged, mean of replicates
CAGCGTCC: -0.178
ATCTACTC: 0.12
GGCACTCA: -0.13
ACCAGGAT: -0.0815
TCAGCCCA: -0.269
CTAGGGCA: -0.22
ACCTAATG: -0.0389
GTGTCTTA: 0.13
GCAGGAAC: -0.107
GGACGGTA: 0.0663
CGCCTCTA: -0.0935
CATTCCAA: 0.0696
CAGTCAAC: -0.136
CACCTTTA: 0.0488
CTCGTAAA: 0.0875
CGCGCCAG: -0.225
ACGCCTAT: -0.0384
ACGTTCAG: -0.029
ACGCGGTG: -0.291
AGGCACCG: -0.262
GTCGGCGA: -0.253
CCGACGCA: -0.213
CATCGCAC: -0.123
AACGACCG: -0.233

Series 6 — technique: RNA Bind-n-Seq; form: RNA; medium: in vitro; tested at: 365 nM; reference: no-protein control; reading: higher = stronger binding; measurement: RBNS enrichment (R)
Target: RNA binding protein fox-1 homolog 2, RRM domain, GST-SBP tag (RBFOX2, Homo sapiens, UniProt O43251-10, residues 100-194)
Notes: natural RNA segment, single round, ends assumed
Residues (chain): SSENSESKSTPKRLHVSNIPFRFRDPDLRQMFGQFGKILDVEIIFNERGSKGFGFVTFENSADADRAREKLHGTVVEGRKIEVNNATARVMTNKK
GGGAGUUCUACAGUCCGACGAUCUGACAGUUUAAACUGCUAACAGAUUGAGAGAUCCCUGCUCAGAAACCUCACCUUUAGUGCUUUCUUUAAAGAAGCUGAGGGGUGAAGUUUGCUUACUGAUGUAUCUAUUUUGGAAUUCUCGGGUGCCAA: 0.189
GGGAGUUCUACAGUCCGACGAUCCCUCGCUGGGUCCAGCUGACUCUAGCGUCUGCACAGCCUUGUGUGACUCGUGGUGACCUAACCUGAGAAAGAGUGCAAUCAGAUGUUAAAGUAACUAAAUAGACUGCGGCUGGAAUUCUCGGGUGCCAA: 0.277
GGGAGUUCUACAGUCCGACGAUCCGUCUCCCUCGACAGCGCCCCUGCUGUCUUCCCCACCGCAGUCACCACCACCCGAAAUGCCACGUGGUCACUGUGCACUGCCCUGUUCAUGUGCCUCUGCGGGGCAGGGCUGGAAUUCUCGGGUGCCAA: 0.677
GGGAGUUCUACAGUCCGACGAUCUGCUUGAGUACCAUGUGGCCAGGCCUAUGUGGAUGGCUACUCCGUGCUGUGCGGCUUCACCAGCGGUUGGGAUUGGCCCAGCUUGGAGUGCUUGUGUGGUCCAACCUCAGUGGAAUUCUCGGGUGCCAA: 1.22
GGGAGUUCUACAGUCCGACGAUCCGUACCUUGGAUAAGGGGCCUCACUUGAACCCAUCUUGAAUACCCUUUGCCAGGUGCUUAUUUAAGUACAAAUCCUUUUCAAAGGACUCUAGUGUUCAGUUGUUGAUGUGUGGAAUUCUCGGGUGCCAA: 0.227
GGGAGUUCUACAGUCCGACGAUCUCGUGCCUCUUAGUGCCAAACCCACAGUGAGACCAAAAGUGUCAGGUGUUUUUUUUUUUUUCUUUCUCCUUUGCACUAAGUGCUUUGCAGACACGGCACAGCAAACAUUUUGGAAUUCUCGGGUGCCAA: 0.896
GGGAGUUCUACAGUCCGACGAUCAGUGCUAAAUAAGCAUGUAUGAAAUUGAAUGGUUGUGAUGGCUGGUGGGCGGGGGCAAAGAGCCUACCAUCUCUGCCUGAGACAUCAGUUUAUACCAGACCAUUUUUACUUGGAAUUCUCGGGUGCCAA: 0.469
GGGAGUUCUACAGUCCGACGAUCUGCCUCAGGUCCCGAGUAACUUAUGUUCAAUGUGCCAACACCAGUGGGGAGCCCGCAGGCCUAUGUGGCAGCGUCACCACAGGAGUUGUGGGCCUAGGAGAGGCUUUGGAUGGAAUUCUCGGGUGCCAA: 0.399
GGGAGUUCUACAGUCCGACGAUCAGUGGGCUACUAGAGACCUCUGACCCCAGCAGCACUGGCUUGCCCUCAUAUGUGGGGUGUAGUCACGUCAGUGACUUCCUGGGAAUUGCUUGUUUCAGAUCAUAUUGAUCUGGAAUUCUCGGGUGCCAA: 6.83
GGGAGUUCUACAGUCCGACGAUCGGUGGCUCCGAGCAUGAGGUCCGCCUCCUGGGCGAGACCCAGCAGUGGACAGCAUGGUCCUCACACCCAGCUCCCUGCACACCCAGGCCAGCCACCCCUCCCGCUCGUGCUGGAAUUCUCGGGUGCCAA: 0.446
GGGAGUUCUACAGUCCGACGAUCUGUGACUUUUUAGCCAGUGACUUUUUCUGAGCUUUUCAUGGAAGUGGCAGUGAAAAAUAUGUUGAGUGUUCAUUUUAGUGACUGUAAUUAAUAUCUUGCUGGAUUAAUGUUGGAAUUCUCGGGUGCCAA: 0.534
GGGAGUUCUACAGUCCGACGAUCUGUGAACCACGCUCAGGCCACACAGAGACACAUACUUGGUUUCUGGGACUGAGACCCAGGCCUGGCAGGACCGUGCCUACAGAUACUGCAAACGUUCCUACAGCCUAGAGUGGAAUUCUCGGGUGCCAA: 0.282

Series 7 — technique: DHFR PCA, deep sequencing; medium: yeast; with: (+)-ABA 1.4 µM; reference: wild-type fitted maximum; reading: higher = stronger binding; measurement: relative binding score
Target: ABI1, truncated, D143A, DHFR fusion (Arabidopsis thaliana)
Notes: methotrexate growth selection, single substitutions
Parent: PYL1, truncated, DHFR fusion (Arabidopsis thaliana); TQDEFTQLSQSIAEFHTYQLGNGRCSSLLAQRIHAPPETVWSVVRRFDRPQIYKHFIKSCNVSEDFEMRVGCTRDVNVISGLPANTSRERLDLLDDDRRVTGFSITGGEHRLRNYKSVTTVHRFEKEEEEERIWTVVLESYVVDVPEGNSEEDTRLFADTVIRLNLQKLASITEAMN; partner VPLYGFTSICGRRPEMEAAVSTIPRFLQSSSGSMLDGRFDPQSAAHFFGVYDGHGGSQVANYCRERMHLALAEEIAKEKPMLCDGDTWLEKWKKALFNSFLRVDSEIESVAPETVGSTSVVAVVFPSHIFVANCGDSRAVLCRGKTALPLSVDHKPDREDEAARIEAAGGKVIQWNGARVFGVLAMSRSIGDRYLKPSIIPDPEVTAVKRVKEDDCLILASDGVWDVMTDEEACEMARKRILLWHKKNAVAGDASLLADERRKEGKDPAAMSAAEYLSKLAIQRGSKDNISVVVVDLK
E89I: 1.49%
P36L: 37.8%
I105P: -13.9%
S27D: 31%
Y18K: 0.518%
D92W: -1.94%
F157G: -12.5%
R88E: 49.1%
W134V: 55%
E67N: 44.6%
D92T: 19.1%
F15D: -0.106%
G81E: -4.98%
G81V: -6.02%
S104A: 3.21%
K126V: 71.9%
R49G: 1.67%
R132N: 81.7%
R45I: -21.6%
K54F: -6.9%
I133Y: 41.4%

Further values, each from its own experiment
PhoQ, residues 284 288 289 292 302 303 SCEHLI
fold induction (PhoP, residues 12 14 15 18 19 TPLRH (Escherichia coli, UniProt P23836); Sort-seq, refers to: YFP reporter; E. coli; PhoQ-PhoP variant library, with: 10 µM Mg2+; reference: high Mg2+ state, higher = stronger signaling): 0.524
